Assay results gathered from unrelated publications.
Lines come from different studies, so protocols differ. Values joined by “and” are separate records of one study, mostly repeats; a detail may differ.
U2AF2: U2AF2 148-342 (Homo sapiens, UniProt P26368)
UniProt P26368, sequence (whole entry, looked up): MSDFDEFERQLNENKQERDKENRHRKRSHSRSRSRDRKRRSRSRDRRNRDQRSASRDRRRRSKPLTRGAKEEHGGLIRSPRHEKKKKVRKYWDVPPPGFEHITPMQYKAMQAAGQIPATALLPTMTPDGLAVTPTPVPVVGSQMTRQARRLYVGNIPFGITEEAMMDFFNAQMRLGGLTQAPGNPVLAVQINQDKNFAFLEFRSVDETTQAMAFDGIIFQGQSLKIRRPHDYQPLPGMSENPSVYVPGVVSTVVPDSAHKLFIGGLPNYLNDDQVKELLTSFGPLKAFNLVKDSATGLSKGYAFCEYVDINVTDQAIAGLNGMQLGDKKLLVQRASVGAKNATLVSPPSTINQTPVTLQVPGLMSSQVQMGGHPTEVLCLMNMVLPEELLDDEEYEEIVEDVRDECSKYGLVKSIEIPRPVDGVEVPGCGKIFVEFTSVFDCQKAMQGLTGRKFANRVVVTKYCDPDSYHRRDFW
B1: human FHL1; sequence looked up; chain AEKFDCHYCRDPLQGKKYVQKDGHHCCLKCFDKFCANTCVECRKPIGADSKEVHYKNRFWHDTCFRCAKCLHPLANETFVAKDNKILCNKCTTREDSPKCKGCFKAIVAGDQNVEYKGTVWHKDCFTCSNCKQVIGTGSFFPKGEDFYCVTCHETKFAKHCVKCNKAITSGGITYQDQPWHADCFVCVTCSKKLAGQRFTAVEDQYYCVDCYKNFVAKKCAGCKNPITGKRTVSRVSHPVSKARKPPVCHGKRLPLTLFPSANLRGRHPGGERTCPSWVVVLYRKNRSLAAPRGPGLVKAPVWWPMKDNPGTTTASTAKNAP
B2: human hnRNP C; sequence looked up; chain ASNVTNKTDPRSMNSRVFIGNLNTLVVKKSDVEAIFSKYGKIVGCSVHKGFAFVQYVNERNARAAVAGEDGRMIAGQVLDINLAAEPKVNRGKAGVKRSAAEMYGSVTEHPSPSPLLSSSFDLDYDFQRDYYDRMYSYPARVPPPPPIARAVVPSKRQRVSGNTSRRGKSGFNSKSGQRGSSKSGKLKGDDLQAIKKELTQIKQKVDSLLENLEKIEKEQSKQAVEMKNDKSEEEQSSSSVKKDETNVKMESEGGADDSAEEGDLLDDDDNEDRGDDQLELIKDDEKEAEEGEDDRDSANGEDDS
B3: human AIMP1; sequence looked up; chain ANNDAVLKRLEQKGAEADQIIEYLKQQVSLLKEKAILQATLREEKKLRVENAKLKKEIEELKQELIQAEIQNGVKQIPFPSGTPLHANSMVSENVIQSTAVTTVSSGTKEQIKGGTGDEKKAKEKIEKKGEKKEKKQQSIAGSADSKPIDVSRLDLRIGCIITARKHPDADSLYVEEVDVGEIAPRTVVSGLVNHVPLEQMQNRMVILLCNLKPAKMRGVLSQAMVMCASSPEKIEILAPPNGSVPGDRITFDAFPGEPDKELNPKKKIWEQIQPDLHTNDECVATYKGVPFEVKGKGVCRAQTMSNSGIK
UniProt Q64663, sequence (whole entry, unmodified, looked up): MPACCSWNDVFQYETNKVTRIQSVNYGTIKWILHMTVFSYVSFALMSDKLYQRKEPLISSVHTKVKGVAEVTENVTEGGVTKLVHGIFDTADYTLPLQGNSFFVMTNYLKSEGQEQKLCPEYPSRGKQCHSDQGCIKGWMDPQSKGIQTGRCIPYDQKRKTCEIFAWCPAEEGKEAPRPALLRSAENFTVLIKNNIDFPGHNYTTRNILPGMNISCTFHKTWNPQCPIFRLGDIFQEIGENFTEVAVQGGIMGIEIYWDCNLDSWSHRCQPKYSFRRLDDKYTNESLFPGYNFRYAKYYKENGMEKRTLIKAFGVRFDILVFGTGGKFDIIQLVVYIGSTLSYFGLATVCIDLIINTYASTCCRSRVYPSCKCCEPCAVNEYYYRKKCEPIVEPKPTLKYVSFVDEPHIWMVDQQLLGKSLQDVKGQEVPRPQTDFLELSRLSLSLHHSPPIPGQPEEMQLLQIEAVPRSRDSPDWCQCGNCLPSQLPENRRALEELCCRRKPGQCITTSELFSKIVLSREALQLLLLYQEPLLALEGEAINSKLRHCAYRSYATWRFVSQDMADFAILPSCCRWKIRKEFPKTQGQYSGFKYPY

| Molecule | tested on | test | system | conditions | how to read | measurement | value |
| --- | --- | --- | --- | --- | --- | --- | --- |
| GEMVGQARILAQATSDLVNAIKDA | vinculin head domain Vd1 | complex rupture, AFM single-molecule force spectroscopy | peptide | multiple traces, C-terminal pulling, 800 nm/s | – | rupture force FWHM upper side | 11.5 pN |
| VMRLQSETSV | construct, MBP fusion, human SCRIB, PDZ 3-4 | surface plasmon resonance | peptide | concentration not given | higher = stronger binding | normalised SPR binding response | 63.7 normalised RU |
| VVVGAVGVGK | HLA-A*11:01 peptide-β2M single-chain trimer | western blot, item: pMHC-I | peptide, 293T cells | 24 h, unit not given, added: 100 µg/mL cycloheximide | reference: time zero | remaining protein | 0.835 and 0.863 and 0.901 |
| B1 (human FHL1) | PP6C (human) | co-immunoprecipitation, IP-MS | CYB5R4 knockout cells | concentration not given | reference: CYB5R4 knockout over parental | log2 fold change | -2.14 |
| colistin | Escherichia coli | broth microdilution | clinical isolate RKI-No_525/16 | – | – | MIC | 8 µg/mL |
| cytidine monophosphate | adenosine A2A receptor thermostabilised | equilibrium dialysis LC-MS | – | 5 µM, normalised z-score | reference: no protein | log2 fold change | 0.106 |
| GUUUUUCAG (ssRNA) | U2AF2 | sequencing of bound RNA | RNA | motif only | – | Kd | 4.7 µM |
| human histone deacetylase 2 | PP6C (human) | co-immunoprecipitation, IP-MS | CYB5R4 knockout cells | concentration not given | reference: CYB5R4 knockout over parental | log2 fold change | -0.37 |
| NRVDSKETEC | construct, MBP fusion, human SCRIB, PDZ 3-4 | automated holdup | peptide, purified PDZ protein | concentration not given, unit not given | reference: biotin control resin, higher = stronger binding | binding intensity | 0.182 |
| ATP synthase subunit beta, human | PP6C (human) | co-immunoprecipitation, IP-MS | CYB5R4 knockout cells | concentration not given | reference: CYB5R4 knockout over parental | log2 fold change | -0.09 |
| GSGAGKETSF | construct, MBP fusion, human SCRIB, PDZ 3-4 | surface plasmon resonance | peptide | concentration not given | higher = stronger binding | normalised SPR binding response | 44.1 normalised RU |
| UCAUGUUUC (ssRNA) | U2AF2 | sequencing of bound RNA | RNA | motif only | – | Kd | 2.35 µM |
| BzATP | P2X purinoceptor 7 (P2rx7, Rattus norvegicus, UniProt Q64663) | ion current, agonist, two-electrode voltage clamp | Xenopus laevis oocytes | 0.14 µM | reference: highest concentration response | normalized current | 0.00936 and 0.1 and 0.0173 |
| VVVGACGVGK | HLA-A*11:01 peptide-β2M single-chain trimer | western blot, item: pMHC-I | peptide, 293T cells | 12 h, unit not given, added: 100 µg/mL cycloheximide | reference: time zero | remaining protein | 0.803 and 0.819 and 0.801 |
| PMESGICTIV | construct, MBP fusion, human SCRIB, PDZ 3-4 | surface plasmon resonance | peptide | concentration not given | higher = stronger binding | normalised SPR binding response | 11.7 normalised RU |
| Peginesatide | UT7/EPO | RT-qPCR, item: MAFF | – | concentration not given, 90 min | reference: vehicle | mRNA fold induction | 3 fold |
| GSGAGQITKV | construct, MBP fusion, human SCRIB, PDZ 3-4 | surface plasmon resonance | peptide | concentration not given | higher = stronger binding | normalised SPR binding response | 0 normalised RU |
| human HuR | PP6C (human) | co-immunoprecipitation, IP-MS | CYB5R4 knockout cells | concentration not given | reference: CYB5R4 knockout over parental | log2 fold change | -1.81 |
| GSGAGKETRV | construct, MBP fusion, human SCRIB, PDZ 3-4 | surface plasmon resonance | peptide | concentration not given | higher = stronger binding | normalised SPR binding response | 24.3 normalised RU |
| B2 (human hnRNP C) | PP6C (human) | co-immunoprecipitation, IP-MS | CYB5R4 knockout cells | concentration not given | reference: CYB5R4 knockout over parental | log2 fold change | -0.4 |
| oxypaeoniflorin | Nrf2 | Nrf2 induction, inducer | – | – | reference: control | fold induction | 0.76 fold |
| MAPVLYLQDKSSN | DnaK (Escherichia coli) | fluorescence polarization | peptide | 25 µM, 30 °C, added: ATP | – | bound fraction | 97.6% |
| B3 (human AIMP1) | PP6C (human) | co-immunoprecipitation, IP-MS | CYB5R4 knockout cells | concentration not given | reference: CYB5R4 knockout over parental | log2 fold change | 0.96 |

A few entries again:
| Molecule | tested on | test | system | conditions | how to read | measurement | value |
| --- | --- | --- | --- | --- | --- | --- | --- |
| MAPVLYLQDKSSN | DnaK (Escherichia coli) | fluorescence polarization | peptide | 25 µM, 30 °C, added: ATP | – | bound fraction | 97.6% |
